# Results collected from several papers.
# Each numbered part is a random draw from the data of one study; scales do not carry over between parts.

# Sample 1 — technique: universal PBM; molecule type: double-stranded DNA, one strand shown; matrix: in vitro; tested at: not given; direction: higher = stronger binding
# Target: Sal-like protein 4, full length isoform B (SALL4, Homo sapiens, UniProt Q9UJQ4-2, residues 1-616)
# Notes: 8-mer, flanks averaged, mean of replicates
# Residues (chain): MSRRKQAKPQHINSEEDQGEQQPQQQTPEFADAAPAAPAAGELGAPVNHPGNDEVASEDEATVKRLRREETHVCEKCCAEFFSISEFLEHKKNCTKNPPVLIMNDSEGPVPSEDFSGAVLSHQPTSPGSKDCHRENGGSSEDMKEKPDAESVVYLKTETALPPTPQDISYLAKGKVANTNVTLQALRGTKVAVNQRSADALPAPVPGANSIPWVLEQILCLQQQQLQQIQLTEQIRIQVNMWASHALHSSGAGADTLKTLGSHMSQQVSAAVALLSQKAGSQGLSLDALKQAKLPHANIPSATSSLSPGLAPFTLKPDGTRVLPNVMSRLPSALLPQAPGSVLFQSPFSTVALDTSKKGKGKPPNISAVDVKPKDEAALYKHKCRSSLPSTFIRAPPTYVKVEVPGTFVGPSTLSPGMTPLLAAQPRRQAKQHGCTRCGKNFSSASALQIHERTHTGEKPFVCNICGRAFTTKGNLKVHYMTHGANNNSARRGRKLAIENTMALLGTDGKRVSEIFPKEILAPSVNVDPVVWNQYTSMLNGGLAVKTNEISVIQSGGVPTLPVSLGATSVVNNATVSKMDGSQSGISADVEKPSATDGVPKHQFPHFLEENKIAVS
Sequence,E-score
ACTCCCCG,-0.236
CTTATTAC,0.329
CTTTACAC,0.0839
CCACCACG,-0.0645
GCTGTGCA,-0.283
CATGGGTA,-0.157
AGTCTCAA,-0.102
ACTCCACG,-0.231
ATTAGCCC,0.00303
AGATTAGG,0.0457
TCGGTGAA,-0.0817
CTATCTTC,0.144
TAGCAGGA,-0.168
GGAGCGAA,-0.135
CCTCACTA,-0.0285
ACTGAGTC,-0.0814
AGCCTTAT,0.107
ACAGTGGG,-0.227
CCTACAAC,0.0258

# Sample 2 — technique: protein-binding microarray; molecule type: double-stranded DNA, one strand shown; matrix: in vitro; tested at: 2200 nM top; notes: 60-bp whole probe; with: salmon DNA 0.4 mg/ml; baseline: random background probes; direction: higher = stronger binding; shared flanks, not repeated: GCCTAGCAC … GTCTTGATTCGCTTGACGCTGCTG
# Target: Interferon regulatory factor 7, full length, phosphomimetic (IRF7, Homo sapiens, UniProt Q92985, residues 1-503, S471D/S472D/S475D/S476D/S477D/S483D/S484D/S487D)
# Sequence of UniProt Q92985 (whole entry, unmodified, looked up): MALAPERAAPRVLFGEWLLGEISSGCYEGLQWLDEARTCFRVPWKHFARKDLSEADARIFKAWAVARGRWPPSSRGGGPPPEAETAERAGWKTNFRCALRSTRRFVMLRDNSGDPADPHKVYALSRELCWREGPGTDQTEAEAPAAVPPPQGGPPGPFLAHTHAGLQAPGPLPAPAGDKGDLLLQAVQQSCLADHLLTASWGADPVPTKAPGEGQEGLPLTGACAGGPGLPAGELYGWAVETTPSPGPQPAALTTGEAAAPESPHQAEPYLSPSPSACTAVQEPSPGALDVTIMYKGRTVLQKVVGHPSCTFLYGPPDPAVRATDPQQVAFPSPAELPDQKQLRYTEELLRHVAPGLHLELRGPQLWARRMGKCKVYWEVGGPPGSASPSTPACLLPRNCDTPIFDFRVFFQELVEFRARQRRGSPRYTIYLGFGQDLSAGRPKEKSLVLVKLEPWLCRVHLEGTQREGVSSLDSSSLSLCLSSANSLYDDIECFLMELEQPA
Sequence,fitted relative affinity [z-score]
CACGATCTCAGTATCGAGACGTGCTAG,0.612
GACGGTTTCGGATTCGGGACGTGCTAG,8.42
TAGTTTCTAAAACTCTTTATGTGCTAG,1.13
GACGGCATCGGTCTCGGGACGTGCTAG,-0.558
TTAGATTTCAGCTTCGATTAGTGCTAG,0.539
TTAGGTCTCCTTATCCTTGAGTGCTAG,0.719
TTAGGTCTCCGTCTCGGTTAGTGCTAG,0.619
TTAGATCTCAGTCTCGACTAGTGCTAG,0.0608
GGCCCTGTCCTTTTCTTTACGTGCTAG,1.16
GTCGGTTTCGACTTTCGGGACGTGCTA,9.67
TTAGGATTGCTTCTCCTTTAGTGCTAG,0.968
TTAGGGATCGACTATCGGTTAGTGCTA,-0.104
GACGGACTGGGGACAGGGGACGTGCTA,-0.682
TTAGGTTTCGGGAATCGGTTAGTGCTA,2.71
TTAGGACTGCTTATCCTTGAGTGCTAG,0.145
GACTTTTTACCTGTGGTGTAGTGCTAG,1.05
CACGATTTCAGTTCCGAGACGTGCTAG,2.35

# Sample 3 — technique: RNA Bind-n-Seq; molecule type: RNA; matrix: in vitro; tested at: not given; baseline: input RNA pool; direction: higher = stronger binding
# Target: RING finger protein unkempt homolog, zinc fingers 1-6, GST-SBP tag (UNK, Homo sapiens, UniProt Q9C0B0, residues 30-357)
# Sequence of UniProt Q9C0B0 (30-357, looked up): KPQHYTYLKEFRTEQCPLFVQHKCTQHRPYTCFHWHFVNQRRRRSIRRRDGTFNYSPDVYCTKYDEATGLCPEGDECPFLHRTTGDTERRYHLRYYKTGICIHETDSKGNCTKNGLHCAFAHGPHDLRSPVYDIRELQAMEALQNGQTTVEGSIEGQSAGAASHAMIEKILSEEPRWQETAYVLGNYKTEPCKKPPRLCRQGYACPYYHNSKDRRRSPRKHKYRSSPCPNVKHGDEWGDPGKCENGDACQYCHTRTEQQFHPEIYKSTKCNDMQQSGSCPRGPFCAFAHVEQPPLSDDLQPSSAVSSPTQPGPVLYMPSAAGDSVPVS
# Notes: RNA with constant flanks, human-mouse chimeric sites, ends assumed
Sequence,bound/input enrichment [ratio]
GGGAGUUCUACAGUCCGACGAUCUACUCAACUUUCUUGCCACAUUUUGAAUUCCAAGACAUUAUUCCUCCAGAUGACUUCCUAACGAGUGAUGAAGAGCAAGAUUCCGUUUUAUUUGGAAGUUUGAGAGGACAAGUUGUUGGACAACAGAGGAUUGAGCAUCA,0.14
GGGAGUUCUACAGUCCGACGAUCUAAGUUAUUUUGUACAGCUUUGUAAAUUCUUAACAUUUUUAUAUUGCCAUGUUUAUUUUGUUUGGGUGCUUUAUUAAAUUAAGUACAUAGCUAAGGUACAUCUUUCAUUUUUCAGUAAUUCAACAGAGGAUUGAGCAUCA,1.77
GGGAGUUCUACAGUCCGACGAUCUAUAUCACCAAUGUCCUACAAAAUCCUGACUUGGCUCUGAGAAUGGCUGUGCGGAACAACUUAGCUGGUGCUGAAGAACUCUUUGCCCGGAAAUUUAAUGCUCUUUUCGCCCAGGGAAACCAACAGAGGAUUGAGCAUCA,0.279
GGGAGUUCUACAGUCCGACGAUCAAAGUGAUGACUAUGUUUGUCCAACGACAGGUAUUUUCGGAGAGCAAAGAUGAGAUUGCUUUAGUCCUCUAUGGCACAGAUGGCACUGACAAUCCCCUUGCUGGCAAGGACCAGUAUCAGCAACAGAGGAUUGAGCAUCA,0.178

# Sample 4 — technique: competition protein-binding microarray; molecule type: double-stranded DNA, one strand shown; matrix: in vitro; tested at: 2 µM; with: Cbf1 competitor, 0.05 µM; direction: higher = stronger binding
# Target: Phosphate system positive regulatory protein PHO4, full length, GST-tagged (PHO4, Saccharomyces cerevisiae, UniProt P07270, residues 1-312)
# Notes: whole 60-bp probe, lowest competitor level
# Target sequence (chain): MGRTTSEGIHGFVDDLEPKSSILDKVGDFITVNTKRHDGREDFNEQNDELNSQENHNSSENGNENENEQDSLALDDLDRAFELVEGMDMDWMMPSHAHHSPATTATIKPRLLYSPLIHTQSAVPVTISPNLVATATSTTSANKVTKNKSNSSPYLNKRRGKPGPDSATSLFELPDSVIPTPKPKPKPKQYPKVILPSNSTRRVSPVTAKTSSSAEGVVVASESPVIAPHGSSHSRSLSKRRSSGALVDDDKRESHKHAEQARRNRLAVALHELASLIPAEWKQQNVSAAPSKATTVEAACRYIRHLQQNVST
Sequence,fluorescence intensity
GCGAGAATTTGCACACATGTGACGCTGAATGTATATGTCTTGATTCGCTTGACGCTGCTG,11100 a.u.
CTACTGGAGATGCAGGTCGTGATGGACTTTTAGCTTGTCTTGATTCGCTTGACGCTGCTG,5720 a.u.
TTCCTTTCTCATCCCCTCGTGAAGCGACTCGGCCCCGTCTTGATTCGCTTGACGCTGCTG,5800 a.u.
CATACCCAACCTTGCCACGTGGGTGAAGATATTTGTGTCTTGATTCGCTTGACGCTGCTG,18000 a.u.
ATAGCAAAGAACCGTCACAGATTCATTATTGACCTTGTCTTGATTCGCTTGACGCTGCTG,3120 a.u.
CGTCCTAGTGATTGGAGCGTGGGTGCCATGAGGAAGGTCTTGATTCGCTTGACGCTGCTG,8940 a.u.
CAATTGGGTATGAATCACACGCAATCAGCCCAATCAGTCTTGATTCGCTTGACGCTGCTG,4420 a.u.
TGCGCAACAACTTGACCTGTGGGTGTATGTCTAGAAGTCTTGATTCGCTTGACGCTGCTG,4620 a.u.
CGTCCTAGTGATTGTTAGGTGGGTGCCATGAGGAAGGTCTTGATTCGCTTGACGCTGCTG,7470 a.u.
CTTAGGAATGATTAAAGCATGACAATCAGCAGTAGGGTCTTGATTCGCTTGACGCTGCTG,5720 a.u.
GCGACATCAACGAGTCACGTGACGGGCACTGCGTCGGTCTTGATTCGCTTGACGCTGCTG,11400 a.u.
ATTTTCTTGGTCGACCACGTGCCGACCTTAAAGCAGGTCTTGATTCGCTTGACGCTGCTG,19000 a.u.
AAGTTCATATATTTGCACGTGCTGTTAGCTCTTTTCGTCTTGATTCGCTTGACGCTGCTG,16400 a.u.
ATCCTCTAACGCTTCTACCACCGTCTCTTCTACGATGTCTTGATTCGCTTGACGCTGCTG,4060 a.u.
AAATCATTGATTTCCAATCTTTAAAAAATCCATCCAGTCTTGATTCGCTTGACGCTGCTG,2720 a.u.
AAAGCGGTAATTTGAGTTGTGGGTGCAGATATCTATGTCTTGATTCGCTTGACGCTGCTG,4530 a.u.

# Excerpt of the above (sample 2):
Sequence,fitted relative affinity [z-score]
CACGATCTCAGTATCGAGACGTGCTAG,0.612
GACGGTTTCGGATTCGGGACGTGCTAG,8.42
TAGTTTCTAAAACTCTTTATGTGCTAG,1.13
GACGGCATCGGTCTCGGGACGTGCTAG,-0.558
TTAGATTTCAGCTTCGATTAGTGCTAG,0.539
TTAGGTCTCCTTATCCTTGAGTGCTAG,0.719
TTAGGTCTCCGTCTCGGTTAGTGCTAG,0.619
TTAGATCTCAGTCTCGACTAGTGCTAG,0.0608
GGCCCTGTCCTTTTCTTTACGTGCTAG,1.16
